Measured values gathered from unrelated publications.
A part holds a random share of what one study measured.

Sample 1
Target: TAR DNA-binding protein 43, full length, His tag (TARDBP, Homo sapiens, UniProt Q13148, residues 1-414)
Technique: RNA Bind-n-Seq
Molecule type: RNA
Sample: in vitro
Concentration: 20 nM
Notes: 6-mer, flanks averaged, single round
Added: 150 mM KCl
Reference: input library
Reading: higher = stronger binding
Endpoint: 6-mer enrichment (R)
ACUGUC: 0.616
GCCGAG: 1.54
UCGACU: 0.594
AACGAC: 0.607
CAUCAA: 0.605
UGUCGU: 0.757
CCAAUC: 0.594
CACAUA: 0.627
CCCACU: 0.628
GAAUGU: 1.14
CAUACC: 0.585
CCAUUC: 0.571
UCCAGC: 0.681
AAGGAC: 0.812
AGUCCC: 0.625
GCGUUG: 1.28
AUCACU: 0.558

Sample 2
Target: Interferon regulatory factor 7, full length, phosphomimetic (IRF7, Homo sapiens, UniProt Q92985, residues 1-503, S471D/S472D/S475D/S476D/S477D/S483D/S484D/S487D)
UniProt Q92985, sequence (whole entry, unmodified, looked up): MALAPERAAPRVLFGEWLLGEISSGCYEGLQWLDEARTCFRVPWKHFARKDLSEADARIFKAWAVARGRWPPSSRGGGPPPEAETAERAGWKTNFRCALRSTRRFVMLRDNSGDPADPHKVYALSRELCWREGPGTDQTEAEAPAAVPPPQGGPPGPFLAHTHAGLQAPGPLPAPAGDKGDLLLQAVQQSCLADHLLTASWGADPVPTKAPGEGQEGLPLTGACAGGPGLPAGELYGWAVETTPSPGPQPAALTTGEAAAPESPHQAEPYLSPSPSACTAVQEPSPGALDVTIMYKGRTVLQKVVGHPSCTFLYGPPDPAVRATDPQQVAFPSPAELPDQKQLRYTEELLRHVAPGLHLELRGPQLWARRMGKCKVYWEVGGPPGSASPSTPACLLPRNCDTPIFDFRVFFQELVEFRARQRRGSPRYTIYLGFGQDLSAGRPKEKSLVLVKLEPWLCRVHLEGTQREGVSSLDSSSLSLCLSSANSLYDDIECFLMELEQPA
Technique: protein-binding microarray
Molecule type: double-stranded DNA, one strand shown
Sample: in vitro
Concentration: 2200 nM top
Notes: 60-bp whole probe
Added: salmon DNA 0.4 mg/ml
Reference: random background probes
Reading: higher = stronger binding
Endpoint: fitted relative affinity
Shared flanks, not repeated: GCCTAGCAC … GTCTTGATTCGCTTGACGCTGCTG
TTAGATCTCAAACTGGATTAGTGCTAG: -0.38 z-score
TCATGGTCCTCTCTCTAACTGTGCTAG: 1.04 z-score
TTAGAACTGGGGTACCGATTAGTGCTA: -0.378 z-score
TTAGGTATCCCTATCCTTTAGTGCTAG: 1.03 z-score
GACGTTCTCCTTCTCCTGACGTGCTAG: 1.9 z-score
TTTGGTTTCTGGTTTATTGAGTGCTAG: 4.43 z-score
TTAGATCTCAGTTTCGATCAGTGCTAG: 3.41 z-score
TCATTTTTCTAAGTAAAACTGTGCTAG: 1.01 z-score
AAACGGATGATCTCTCTGGGCGTGCTA: -0.228 z-score
GACTGTTTCCTTTTCCTGACGTGCTAG: 4.78 z-score
TTAGAACTGAGTCTTGATTAGTGCTAG: -0.139 z-score
GACGATCTCGGTATCGAGACGTGCTAG: -0.102 z-score
TACGGTCTCCTACTGCTGACGTGCTAG: 0.945 z-score
CTTAGTTTGTATATATTTTAGTGCTAG: 0.618 z-score
TTAGAACTGAGGATCGATTAGTGCTAG: -0.735 z-score
GGCGGTTCCGGTTTCGGGACGTGCTAG: 4.95 z-score
GACGGTCTCGGTTTCGCGACGTGCTAG: 2.27 z-score
ATTGTTTCCTCTTTCACTGCGTGCTAG: 4.33 z-score
TTGGAACTGGGGACTGGATTAGTGCTA: -0.3 z-score
TCACTTCTCAATTAAAAACTGTGCTAG: 1.78 z-score
TTAGGTTTCGGTTTCGGTTTGTGCTAG: 20.1 z-score
GACGGACTGGGTCTCGGAACGTGCTAG: -0.71 z-score
TTAGGTTTCCTACTGCTTCAGTGCTAG: 1.16 z-score
GACGGTTTCGGGTTTCGGGACGTGCTA: 9.71 z-score

Sample 3
Target: Histone acetyltransferase KAT6A, winged helix 1, GST fusion (KAT6A, Homo sapiens, UniProt Q92794, residues 1-85)
Technique: protein binding microarray
Molecule type: double-stranded DNA, one strand shown
Sample: in vitro
Concentration: not given
Notes: 8-mer, flanks averaged, mean of 2 arrays, mostly near background
Reference: not given
Reading: higher = stronger binding
Endpoint: E-score
Construct (chain): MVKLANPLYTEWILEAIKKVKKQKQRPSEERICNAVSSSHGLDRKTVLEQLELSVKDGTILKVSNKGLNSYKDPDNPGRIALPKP
GATGCAAC: -0.167
TCTGTGAA: -0.18
CCTCCAGG: -0.103
CGCGCCGA: 0.393
ACGGTATA: 0.235
ATAGGGTC: -0.141
ACGAAAGA: -0.029
GAGCCATA: -0.118
ATAGTTCC: -0.0428
AAAGGGTG: -0.126
CGCTATCC: 0.208
CATCCTAC: -0.123
ACACTTTA: -0.166
TCAATTGA: -0.128
AGGATGCA: -0.242
ACATTCTG: -0.222

Sample 4
Target: Centromere-binding protein 1, full length, N-terminal tag (CBF1, Saccharomyces cerevisiae, UniProt P17106, residues 1-351)
UniProt P17106, sequence (whole entry, looked up): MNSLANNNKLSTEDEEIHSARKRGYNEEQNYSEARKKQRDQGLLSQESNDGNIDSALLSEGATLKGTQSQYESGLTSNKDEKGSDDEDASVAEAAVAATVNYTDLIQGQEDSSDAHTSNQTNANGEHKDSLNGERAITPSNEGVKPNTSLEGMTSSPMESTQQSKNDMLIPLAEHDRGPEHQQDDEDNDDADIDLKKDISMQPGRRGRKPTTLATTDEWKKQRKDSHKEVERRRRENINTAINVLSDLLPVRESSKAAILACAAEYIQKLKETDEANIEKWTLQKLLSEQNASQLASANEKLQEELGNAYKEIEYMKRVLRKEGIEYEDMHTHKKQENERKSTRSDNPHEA
Technique: protein-binding microarray
Molecule type: double-stranded DNA, one strand shown
Sample: in vitro
Concentration: 0.8 µM
Notes: whole 60-bp probe, no competitor
Reading: higher = stronger binding
Endpoint: fluorescence intensity
Shared flanks, not repeated: … GTCTTGATTCGCTTGACGCTGCTG
CTATGCTGCTAGAATAGTATCACGTACAGTAGTTTC: 688 a.u.
GAAAAGAACTGCTGTGGTGTCATGATAGACGAATAG: 634 a.u.
CTAGGACAACATTGGCGTGCGCGCCAATGTTGTTTC: 491 a.u.
GAAAAAACACAAAGGCACATGGTTGTATAGATCTAG: 658 a.u.
TGTACGAAGCTATATCACACTAGTATAGTAGTTAGG: 498 a.u.
GAATTTAGTTTTTTTCTGGTGGTTGTCAAGCCTTAG: 503 a.u.
GAATCCAATCGACGTGGTGGAAAGACTCTAACGTAG: 547 a.u.
GAACAAAGCTCTTAAGTCGTGATCTTCTCTTCTTAG: 600 a.u.
GAATGGTGAAAAAGTATGGTGACGTCTTTACTTTAG: 587 a.u.
CTATAACCACCCCCGGTCGTGACTTTTTAGATTTTC: 533 a.u.
GAATTTAACTTAAACCCCGTGTTTAGCGAAATTTAG: 823 a.u.
CTAAATTATTATTATCACGTTTCACGGATTATTTTC: 2110 a.u.
GAAAAGAGCTACGAGCACGTGCAAATATATGAATAG: 13100 a.u.
CTAAAGAACAAAATCTCCGTGATCTTTTAAACTTTC: 520 a.u.
GAAGAGGCTGCTTATGTCGTGATGCTTATACTATAG: 622 a.u.
GAAACTAGATTGCATCAGGTCCATAAAATGTTTTAG: 524 a.u.
CTAAAGGCGAAGCTTCCTCACATGGAAAAGGCTTTC: 520 a.u.
CTACCAATATTATCTTTCGTGGGTAGAGAAACATTC: 552 a.u.

Sample 5
Target: RNA binding protein fox-1 homolog 2, RRM domain, GST-SBP tag (RBFOX2, Homo sapiens, UniProt O43251-10, residues 100-194)
Technique: RNA Bind-n-Seq
Molecule type: RNA
Sample: in vitro
Concentration: 365 nM
Notes: natural RNA segment, single round, ends assumed
Reference: no-protein control
Reading: higher = stronger binding
Endpoint: RBNS enrichment (R)
Shared flanks, not repeated: GGGAGUUCUACAGUCCGACGAUC … UGGAAUUCUCGGGUGCCAA
Residues (chain): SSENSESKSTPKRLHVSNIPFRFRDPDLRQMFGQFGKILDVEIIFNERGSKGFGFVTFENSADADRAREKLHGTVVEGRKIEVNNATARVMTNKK
UCAAUCAUGGCCUUCACUGAGUGCUUUUGAGAUCCCAGUGCUAAUGUUUUAACUGCCUUUCUGUUGAACUGUGGGGCUCUGAUUUGUGUCUAGAUUAUUGUAUAUUCUCA: 0.797
GUUGCCAGAUAUAACUGCUUUGGAGCAAAUCUCUUCUGUUUAGAGAGAUAGAAGUUAUGACAUAUGUAAUACACAUCUGUGUACACAGAAACCGGCACCUGCCAGACAGA: 0.315
UGCUCUGACCACUCUCCUGUCAUCCAGUUGGCUCCCAUGCUCUCUGGAGCUUCUGGGCGCAAGUUACAGACAUCAUAACCACUGAUCCUAACACACAUAACCAUCAGCCA: 0.31
AUACCAGUAAAACAGAUUCUGACGUGUUUGUAGUUAUCAAAUGAAUGGCUCGAAACACUUCUCAAAAGGAUAUACGUAUUGACCCCAACAAUAAAUGUUUGUGGCUAGUG: 0.397
AAAUGAAAAACCAGAAGGCCAUUUGGUGUCCCCCCUCCCAGGUGUCCCCUUGUAGCAUAUGCAUUAUGUCAUCUGAAUUGAGGCCUUUCUGUGAACAGCAUCAUAACUUC: 0.902
UCUCUUUUAGAAAGAAAAUGAUAUAUAGGGUAAGCGGAAUUUGGGAGCCACGGCCCCAGUAAGUAAUUUUCCAAGUUGAUAGGCUCGUGAAAGCUGAACAUUACCGAUAA: 0.428
UAACCUGGAUAUGUUAGAAAAGUAUCACGUGCCACCUGGGAAGAAGUUCUUUUCUGGCAACUGUCACACUCACACAUGAAGGCAAUCCGUGCAGCACAAUACAAGAUGUU: 0.385
CUAGACCCUCUUCCCACCUACUAUGGCAUUGCAUAUUAGUCUGUUGAGACAUUCAUUGUUGCUUGACUGACAUUUUGGUCUGGGUUUUCUUUUAAUAUUUUAUUUUAAUU: 0.57
CAGGCAGCAUGGUAUGUUUUUAGCCUUUGUUACAGUUUUAGCAACAUUGAUGUCUAAGAGGGGCCGUGGUAAUAGAUUGCAUCUGCCCUGUGCAUGCGCAUGUUUAACCA: 8.49
GAAUCAUGUUCCAGCUGCUUGACCCUACCGUGUGGGUUCAGAGCUCGUUUGGGCGUAACAACUAAGUCUCUUUCCAGAUCAGUAUAAUAAAGGAGUGAUGUGCAAUACUU: 0.615
UGUGCUUGUGUUAUCUUAGCAUUUAUCUUCAAACCAGCAUCUCACUAUUUAUUGACAGUGGUGUGUGUGUGUGUGUGUGUGUGUUUCUGCGUGUGCACAUAUGUGUGCAC: 0.46
CAUCAUCAGGGAGUGGUGUAGUCAGUUGAAGGCAGUUCCCACCGAGUUUUCCGAGCCUCAGAAUCCAGGAGAUACGCACAGCCCCACCCACUCUGAGAUGACAGUGGCUG: 4.42

For quick reference, copied from above (sample 4):
GAATGGTGAAAAAGTATGGTGACGTCTTTACTTTAG: 587 a.u.
GAACAAAGCTCTTAAGTCGTGATCTTCTCTTCTTAG: 600 a.u.
CTAAAGGCGAAGCTTCCTCACATGGAAAAGGCTTTC: 520 a.u.
GAAAAAACACAAAGGCACATGGTTGTATAGATCTAG: 658 a.u.
GAAACTAGATTGCATCAGGTCCATAAAATGTTTTAG: 524 a.u.
GAAAAGAACTGCTGTGGTGTCATGATAGACGAATAG: 634 a.u.
CTAGGACAACATTGGCGTGCGCGCCAATGTTGTTTC: 491 a.u.
CTAAAGAACAAAATCTCCGTGATCTTTTAAACTTTC: 520 a.u.
GAATTTAACTTAAACCCCGTGTTTAGCGAAATTTAG: 823 a.u.
GAAGAGGCTGCTTATGTCGTGATGCTTATACTATAG: 622 a.u.
CTATAACCACCCCCGGTCGTGACTTTTTAGATTTTC: 533 a.u.
GAATTTAGTTTTTTTCTGGTGGTTGTCAAGCCTTAG: 503 a.u.
TGTACGAAGCTATATCACACTAGTATAGTAGTTAGG: 498 a.u.
CTAAATTATTATTATCACGTTTCACGGATTATTTTC: 2110 a.u.
